{"data": "Assay results gathered from unrelated publications", "note": "± marks the error that the study gave."}
{"SMILES": "CCC(C)(C)C(=O)O[C@H]1C[C@@H](C)C=C2C=C[C@H](C)[C@H](CC[C@@H]3C[C@@H](O)CC(=O)O3)[C@H]21", "cell line": "BT-16", "assay": "cell viability, MTT", "conditions": "10 µM, 72 h", "endpoint": "inhibition", "value": "94.1%"}
{"SMILES": "Cn1c(Nc2nc3ccc(C(F)(F)F)cc3s2)nc2cc(C(=O)NCCOCCO)ccc21", "cell line": "SH-SY5Y", "assay": "RNA-seq, measured: THBS1 mRNA", "conditions": "5 µM, 5 h", "scale": "reference: untreated cells", "endpoint": "fold change", "value": 2.05}
{"SMILES": "O=C(/C=C/C=C/C=C/C1CCCCC1)NC1=C[C@@](O)(/C=C/C=C/C=C/C(=O)NC2=C(O)CCC2=O)[C@@H]2O[C@@H]2C1=O", "cell line": "OUMS-23", "assay": "cell growth, CellTiter-Glo", "conditions": "78 h", "endpoint": "GI50", "value": "8.36 µM"}
{"SMILES": "CCc1cnn2c(NCc3ccc[n+]([O-])c3)cc(N3CCCC[C@H]3CCO)nc12", "cell line": "BT-16", "assay": "cell viability, MTT", "conditions": "10 µM, 72 h", "endpoint": "inhibition", "value": "89.4%"}
{"SMILES": "Cn1cc(-c2ccc(-c3cncc(Cl)c3N3CCC4(CCNC4=O)CC3)cc2)cn1", "cell line": "COLO 205", "assay": "gene expression, microarray, measured: MIA mRNA", "conditions": "concentration not given, 6 h", "scale": "reference: untreated cells", "endpoint": "log2 fold change", "value": 2.81}
{"SMILES": "O=P1(C2CCCCC2)CCCCC1", "cell line": "PC-3", "assay": "trypan blue", "conditions": "IC50, 72 h", "scale": "reference: untreated", "endpoint": "reduction of cell number", "value": "67%"}
{"SMILES": "CCn1cc(-c2cc(Cn3ccoc3=N)cc3c2CCN([C@@H](C)c2cc(OC)ccn2)C3=O)c(C(F)(F)F)n1", "cell line": "MSTO-211H", "assay": "cell growth, inhibitor", "conditions": "120 h", "endpoint": "EC50", "value": "> 30 µM"}
{"SMILES": "O=c1[nH]nc(OCCCc2ccc(Cl)cc2)c(NCc2cccnc2)c1Br", "cell line": "HEK293T", "assay": "RNA-seq, measured: HSPD1 mRNA", "conditions": "10 µM, 6 h", "scale": "reference: vehicle", "endpoint": "log2 fold change", "value": -0.0172}
{"SMILES": "COc1cccc2c1c(O)c(C(=O)N(C)c1ccc(C(F)(F)F)cc1)c(=O)n2C", "cell line": "mouse bone marrow-derived macrophages", "assay": "qPCR, measured: Cd206", "conditions": "concentration not given, with: IL-4", "endpoint": "mRNA level", "value": "decreased"}
{"SMILES": "Cc1ccc(CNC(=O)Cn2cc(CSc3nc4ccccc4[nH]3)nn2)cc1", "cell line": "HEK293", "assay": "MTT", "conditions": "500 ppm", "endpoint": "cytotoxicity", "value": "90.9%"}
{"SMILES": "O=C(NC1CCN(CCCCC2(C(=O)NCC(F)(F)F)c3ccccc3-c3ccccc32)CC1)c1ccccc1-c1ccc(C(F)(F)F)cc1", "cell line": "BT-16", "assay": "cell viability, MTT", "conditions": "10 µM, 72 h", "endpoint": "inhibition", "value": "94.1%"}
{"SMILES": "COc1cnc2cccc(N3CCc4c(cc(Cn5ccnc5C)cc4-c4cn(C)nc4C(F)(F)F)C3=O)c2c1", "cell line": "JVM-2", "assay": "cell growth, inhibitor", "conditions": "120 h", "endpoint": "EC50", "value": "7.8 µM"}
{"SMILES": "CC(C)(C)c1nc(-c2cccc(NS(=O)(=O)c3c(F)cccc3F)c2F)c(-c2ccnc(N)n2)s1", "cell line": "SK-MEL-239 (BRAF V600E)", "assay": "ERK phosphorylation, Western blot", "conditions": "1 h", "endpoint": "IC75", "value": "0.025 µM"}
{"SMILES": "COc1cc([C@@H]2c3cc4c(cc3[C@@H](O[C@@H]3O[C@@H]5CO[C@@H](C)O[C@H]5[C@H](O)[C@H]3O)[C@H]3COC(=O)[C@H]23)OCO4)cc(OC)c1O", "cell line": "HepG2 spheroids", "assay": "flow cytometry", "conditions": "1.7 µM, 96 h", "endpoint": "G2 phase cells", "value": "57.9 ± 8.41%"}
{"SMILES": "Cc1ccc(S(=O)(=O)/C=C/C#N)cc1", "cell line": "BT-16", "assay": "cell viability, MTT", "conditions": "10 µM, 72 h", "endpoint": "inhibition", "value": "93.2%"}
{"SMILES": "CC1(C)Oc2ccc(CC3=C(c4ccc(O)cc4)C(=O)OC3=O)cc2CC1O (centres unmarked)", "cell line": "RPTEC", "assay": "qPCR", "conditions": "10 µg/mL, 24 h, basal, no LPS", "scale": "reference: untreated", "endpoint": "IL-6 mRNA level", "value": "no effect"}
{"SMILES": "COc1cccc2c1C(=O)c1c(O)c3c(c(O)c1C2=O)C[C@@](O)(C(=O)CO)C[C@@H]3O[C@H]1C[C@H](N)[C@H](O)[C@H](C)O1", "cell line": "HepG2", "assay": "oxidative stress (ROS)", "conditions": "6 h", "endpoint": "representative mode point of departure", "value": "0.00724 µM"}
{"SMILES": "CCOc1cc(-c2nnc(CCN(C)C)n2C)ccc1Nc1ncc2cc(C)nc(NCC(C)(C)C)c2n1", "cell line": "CAL-51", "assay": "cell growth", "conditions": "72 h", "endpoint": "GI50", "value": "0.395 µM"}
{"SMILES": "CCn1cc(-c2cc(Cn3ccnc3)cc3c2CCN([C@H](c2cc(OC)ccn2)C2CC2)C3=O)c(C(F)(F)F)n1", "cell line": "OV-90", "assay": "cell growth, inhibitor", "conditions": "120 h", "endpoint": "EC50", "value": "> 30 µM"}
{"SMILES": "CC(C)NCC(O)c1ccc(O)c(O)c1 (centres unmarked)", "cell line": "mouse ventricular cardiomyocytes", "conditions": "dose not given, 0.187 s", "endpoint": "sarcomere length", "value": "1.68 µm"}
